{"data": "Assay results from different studies", "note": "A part holds a random share of what one study measured.", "UniProt P60604, sequence (whole entry, looked up)": "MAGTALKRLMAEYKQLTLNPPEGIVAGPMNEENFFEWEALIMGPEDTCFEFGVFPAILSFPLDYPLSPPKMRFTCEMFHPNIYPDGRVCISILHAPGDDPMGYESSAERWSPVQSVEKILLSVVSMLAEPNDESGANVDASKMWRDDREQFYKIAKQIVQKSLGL", "UniProt Q96LR5, sequence (whole entry, looked up)": "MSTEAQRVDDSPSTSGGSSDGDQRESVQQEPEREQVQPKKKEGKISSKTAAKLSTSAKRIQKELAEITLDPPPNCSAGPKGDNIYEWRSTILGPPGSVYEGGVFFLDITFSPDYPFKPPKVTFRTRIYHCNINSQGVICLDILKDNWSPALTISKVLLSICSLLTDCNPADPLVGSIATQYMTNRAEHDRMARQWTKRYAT", "UniProt Q15819, sequence (whole entry, looked up)": "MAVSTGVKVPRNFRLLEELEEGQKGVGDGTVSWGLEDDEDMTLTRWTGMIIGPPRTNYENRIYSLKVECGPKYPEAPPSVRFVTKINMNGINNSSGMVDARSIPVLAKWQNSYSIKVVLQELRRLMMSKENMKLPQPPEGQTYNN", "UniProt Q13404, sequence (whole entry, looked up)": "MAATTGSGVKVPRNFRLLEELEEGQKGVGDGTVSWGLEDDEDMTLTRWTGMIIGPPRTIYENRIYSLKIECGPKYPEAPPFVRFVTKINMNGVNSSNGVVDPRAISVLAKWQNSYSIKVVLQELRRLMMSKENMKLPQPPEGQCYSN", "UniProt P51965, sequence (whole entry, looked up)": "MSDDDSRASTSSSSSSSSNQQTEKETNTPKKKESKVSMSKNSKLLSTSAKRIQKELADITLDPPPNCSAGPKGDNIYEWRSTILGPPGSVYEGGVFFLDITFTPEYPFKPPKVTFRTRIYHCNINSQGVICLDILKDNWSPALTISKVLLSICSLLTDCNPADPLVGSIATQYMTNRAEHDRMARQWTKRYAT", "UniProt O14933, sequence (whole entry, looked up)": "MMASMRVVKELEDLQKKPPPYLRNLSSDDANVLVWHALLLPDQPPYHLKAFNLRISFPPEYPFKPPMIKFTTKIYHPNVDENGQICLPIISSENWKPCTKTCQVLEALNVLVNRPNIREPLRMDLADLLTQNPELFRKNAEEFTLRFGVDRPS", "UniProt P61088, sequence (whole entry, looked up)": "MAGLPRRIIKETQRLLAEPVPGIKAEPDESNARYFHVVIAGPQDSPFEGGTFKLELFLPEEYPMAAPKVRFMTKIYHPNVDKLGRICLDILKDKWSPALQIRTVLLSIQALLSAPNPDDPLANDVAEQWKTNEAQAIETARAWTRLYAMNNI", "UniProt Q8WVN8, sequence (whole entry, looked up)": "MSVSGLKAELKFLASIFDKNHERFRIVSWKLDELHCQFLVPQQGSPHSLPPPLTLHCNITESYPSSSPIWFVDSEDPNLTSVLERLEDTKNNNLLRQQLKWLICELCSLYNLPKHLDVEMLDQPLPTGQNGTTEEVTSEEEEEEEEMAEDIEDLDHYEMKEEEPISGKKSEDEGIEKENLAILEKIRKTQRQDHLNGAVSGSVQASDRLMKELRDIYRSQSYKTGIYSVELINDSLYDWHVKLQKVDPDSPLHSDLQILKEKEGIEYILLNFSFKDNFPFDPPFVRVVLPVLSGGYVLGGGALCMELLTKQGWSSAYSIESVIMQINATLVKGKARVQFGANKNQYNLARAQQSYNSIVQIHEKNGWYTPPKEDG", "UniProt P49427, sequence (whole entry, looked up)": "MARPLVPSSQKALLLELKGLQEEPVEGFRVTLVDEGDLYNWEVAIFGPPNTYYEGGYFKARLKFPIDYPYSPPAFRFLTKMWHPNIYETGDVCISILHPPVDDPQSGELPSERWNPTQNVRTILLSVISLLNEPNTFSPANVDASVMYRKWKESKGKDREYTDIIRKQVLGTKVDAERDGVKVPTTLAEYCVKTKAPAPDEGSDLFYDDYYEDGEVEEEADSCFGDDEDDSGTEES", "UniProt Q5VVX9, sequence (whole entry, looked up)": "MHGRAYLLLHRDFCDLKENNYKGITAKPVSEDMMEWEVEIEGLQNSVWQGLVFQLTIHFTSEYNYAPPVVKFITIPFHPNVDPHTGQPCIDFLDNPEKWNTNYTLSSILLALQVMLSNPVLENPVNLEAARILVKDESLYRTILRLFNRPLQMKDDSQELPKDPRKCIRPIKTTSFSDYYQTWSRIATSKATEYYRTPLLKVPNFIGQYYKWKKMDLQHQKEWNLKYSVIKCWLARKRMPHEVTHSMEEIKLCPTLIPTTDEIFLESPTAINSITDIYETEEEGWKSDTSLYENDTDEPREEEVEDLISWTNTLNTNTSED"}
{"data": "Sample 1", "target": "RNA binding protein fox-1 homolog 2, RRM domain, GST-SBP tag (RBFOX2, Homo sapiens, UniProt O43251-10, residues 100-194)", "technique": "RNA Bind-n-Seq", "molecule type": "RNA", "matrix": "in vitro", "concentration": "365 nM", "setting": "natural RNA segment, single round, ends assumed", "reference": "no-protein control", "reading": "higher = stronger binding", "constant ends, left off below": "GGGAGUUCUACAGUCCGACGAUC … UGGAAUUCUCGGGUGCCAA", "Construct (chain)": "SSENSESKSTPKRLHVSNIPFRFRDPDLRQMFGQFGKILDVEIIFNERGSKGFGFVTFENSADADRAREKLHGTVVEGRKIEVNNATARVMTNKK"}
{"Oligonucleotide": "GGAAAGAAAGUUGAAGACUGUUCUCUGGCUUCUCCUACCUAGGUACAGCAGACUGUAGUACCUCACAGCCCACUUGAGCCCUGGCUUCUCUCAGCAUCACAGAUGAAACU", "RBNS enrichment (R)": 1.15}
{"Oligonucleotide": "CUUUCUAGUUUGGCAGUGCGACUGAGAGAAGAUUCCACACAGGAACAUCUUUCUUCUCCAUCACUCCACGCCUCCAUCCAAGCUCAGUUUCCACUCGCCCACCAGAAGCA", "RBNS enrichment (R)": 1.22}
{"Oligonucleotide": "ACUUGUCCAGUGCUUCACAGUGUUGCUAAUCAGUGGAGAAAUACAUGCUUUCAUUAUCAAGUGUAGUCAGCCGUCUGUUGAGGUCAGGUUUCCUUCCGUUAGCUUUUGGG", "RBNS enrichment (R)": 0.4}
{"Oligonucleotide": "UGCUCGUCCUGUUAAUUUUCCUCAAUUUUUCUUCUUCUUCCUUCUGUCCCUCCUGCCUUCCUUCUCUUCCCAAGCCCUCCAAUCCCCAUCCCAGGCUUGCUGUGUCUCAC", "RBNS enrichment (R)": 1.79}
{"Oligonucleotide": "UAGCCCAGAAAAUCCACACCUUUUGUCCUUUUUAUGUUUUAAUUUGAAUAAUCAUGUGCUUAGUCCCUUGGAUUACUGCCACAUCAGUUUAACACGAUAUCAGCACAUUC", "RBNS enrichment (R)": 0.326}
{"Oligonucleotide": "CUUUUAGUCUUGUGCUGACUUUCUCCUGUCCUCUUCCAGUUUAGAAUAAGACAGGGGAGAAAAAGGCUUUUCGAGUGUGGGACAAGGUCUGAUGUCAGUGAACGGAACUG", "RBNS enrichment (R)": 0.276}
{"Oligonucleotide": "GCCAGGGUUGUGCUUUCUAGCAAAUAUGCUGUUAUGUCCAGAAAUUGUGUGUGCAAGAAAACUAGGCAAUGUACUCUUCCGAUGUUUGUGUCACACAACACUGAUGUGAC", "RBNS enrichment (R)": 0.717}
{"Oligonucleotide": "UCACUCCUAGGAGAGCCAACCUCGGCUUGUGGGCUGGUGCCCCACAGCUACCUGAGACGGGCAUCGCAGGAGUCUCUGCCACCCACUCAGGAUUGGGAAUUGUCUUUAGU", "RBNS enrichment (R)": 0.26}
{"data": "Sample 2", "target": "RING finger protein unkempt homolog, zinc fingers 1-6, GST-SBP tag (UNK, Homo sapiens, UniProt Q9C0B0, residues 30-357)", "technique": "RNA Bind-n-Seq", "molecule type": "RNA", "matrix": "in vitro", "concentration": "not given", "setting": "RNA with constant flanks, human-mouse chimeric sites, ends assumed", "reference": "input RNA pool", "reading": "higher = stronger binding", "constant ends, left off below": "GGGAGUUCUACAGUCCGACGAUC … CAACAGAGGAUUGAGCAUCA", "Target sequence (chain)": "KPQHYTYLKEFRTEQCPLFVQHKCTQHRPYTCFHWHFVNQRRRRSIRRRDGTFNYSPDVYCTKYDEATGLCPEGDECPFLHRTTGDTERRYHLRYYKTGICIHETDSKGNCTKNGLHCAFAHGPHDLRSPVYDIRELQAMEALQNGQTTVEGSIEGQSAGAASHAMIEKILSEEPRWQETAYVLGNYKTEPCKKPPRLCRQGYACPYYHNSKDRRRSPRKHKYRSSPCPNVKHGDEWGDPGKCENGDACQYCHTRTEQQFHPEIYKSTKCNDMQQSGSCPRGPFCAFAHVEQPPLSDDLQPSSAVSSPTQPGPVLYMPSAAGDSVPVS"}
{"Oligonucleotide": "AGAGAUAAGACAUCCAGGAACAUGCGAGGCUCCCGGAUGAAUGGGUUUCCAAGUCCCACUCAUAGUGCCCACUGUAGCUUCUACCGAACCAGAACCUUGCAGGCACUGAGUAAUGAGAAG", "bound/input enrichment [ratio]": 0.0963}
{"Oligonucleotide": "UCGGAUGCUGUGCUGGGUCACUUUUCAUAUCCAGAUCCUUCCCAGUGGACAGAUGAAGAACUGGGAAUCCCUCCUGAUGACGAGGACUGACACUGUAAACUCUCUGGCACUCUGUACGCA", "bound/input enrichment [ratio]": 0.323}
{"Oligonucleotide": "GCUCCUCUUCCGCACUCAGCCUGGGGACACUGGGCUGGGACCAGAAUCCAGCUUUCUUUUAAUAGUGUCAGUGUAACUGUAUCCCGUGACAUUUCAUUUUUUUUAAAUAGUGUAUUUUUU", "bound/input enrichment [ratio]": 6.73}
{"Oligonucleotide": "AUUGUUGAAGCGAAUCCACUCCUAGAAGCAUUUGGAAAUGCAAAGACUGUUCGCAACAAUAAUAGCAGUCGAUUUGGGAAAUUUGUAGAAAUUCAUUUCAAUGAAAAGAGUUCGGUUGUU", "bound/input enrichment [ratio]": 0.263}
{"Oligonucleotide": "UAAGUUAUUUUGUACAGCUUUGUAAAUUCUUAACAUUUUUAUAUUGCCAUGUUUAUUUUUUUUAGAUAAUUUGGUUCAUUAAGUACAUAGCUAAGGUACAUCUUUCAUUUUUCAGUAAUU", "bound/input enrichment [ratio]": 3.02}
{"Oligonucleotide": "UCAGUCUUUUUGUACAGCUUUGUAAAUUCUUAACAUUUUUAUAUUGCCAUGUUUAUUUUUUUUAGAUAAUUUGGUUCAUUAAGUACAUAGCUAAGGUAAUGAACAUCUUUUUCAGUAAUU", "bound/input enrichment [ratio]": 6.82}
{"Oligonucleotide": "ACACAAUAUGAGACCAACAGCUUGGACUUCAAAGUUGGGGCAGAUGGGACAGUCUUCGCCACCCGGGAGCUGCAGGUCCCCUCCGAGCAGGUGGCGUUUACCGUCACUGCAUGGGACAGC", "bound/input enrichment [ratio]": 0.206}
{"Oligonucleotide": "GGCCUGGGACCGUCCUGGGCUAGUACAAAUAGCGGCAGUGGAGGCUCGAGAGGAAAGUUUGUUAGUGAGGCAGUGGUUAGAGGCCGUCAUGUACGGUCCUUUACUCGAUAGAUGUGUUCU", "bound/input enrichment [ratio]": 0.672}
{"data": "Sample 3", "Molecule": "B1 (TRIM68 RING domain)", "technique": "yeast two-hybrid", "matrix": "yeast", "setting": "mostly zero background", "reference": "not given", "reading": "higher = stronger interaction", "B1": "TRIM68 RING domain (UniProt Q6AZZ1); chain LVEAIVEEVACPICMTFLREPMSIDCGHSFCHSCLSGLWEIPGESQNWGYTCPLCRAPVQPRNLRP"}
{"target": "UBE2U UBC core domain (UniProt Q5VVX9)", "lacZ reporter activity": 3500}
{"target": "CDC34 UBC core domain (UniProt P49427)", "lacZ reporter activity": 0}
{"target": "UBE2N UBC core domain (UniProt P61088)", "lacZ reporter activity": 0}
{"target": "UBE2V2 UBC core domain (UniProt Q15819)", "lacZ reporter activity": 0}
{"target": "UBE2E2 UBC core domain (UniProt Q96LR5)", "lacZ reporter activity": 0}
{"target": "UBE2E1 UBC core domain (UniProt P51965)", "lacZ reporter activity": 0}
{"target": "UBE2G2 UBC core domain (UniProt P60604)", "lacZ reporter activity": 0}
{"target": "UBE2Q2 UBC core domain (UniProt Q8WVN8)", "lacZ reporter activity": 0}
{"target": "UBE2V1 UBC core domain (UniProt Q13404)", "lacZ reporter activity": 0}
{"target": "UBE2L6 UBC core domain (UniProt O14933)", "lacZ reporter activity": 0}
{"data": "Sample 4", "target": "Interferon regulatory factor 5, full length, phosphomimetic (IRF5, Homo sapiens, UniProt Q13568-2, residues 1-514, S451D/S453D/S456D/S462D)", "technique": "protein-binding microarray", "molecule type": "double-stranded DNA, one strand shown", "matrix": "in vitro", "concentration": "940 nM top", "setting": "60-bp whole probe", "added": "salmon DNA 0.4 mg/ml", "reference": "random background probes", "reading": "higher = stronger binding", "constant ends, left off below": "GCCTAGCAC … GTCTTGATTCGCTTGACGCTGCTG"}
{"Oligonucleotide": "GAAGGTATCGACTTTCGGGACGTGCTA", "fitted relative affinity [z-score]": 3.31}
{"Oligonucleotide": "GACGGGCTGGGGTATCGGGACGTGCTA", "fitted relative affinity [z-score]": 0.655}
{"Oligonucleotide": "GACGATCTCAGTTACGAGACGTGCTAG", "fitted relative affinity [z-score]": -0.0246}
{"Oligonucleotide": "GAAGGTATCGGGTATCGGGACGTGCTA", "fitted relative affinity [z-score]": 4.4}
{"Oligonucleotide": "GACGAACTGAGTATCGAGATGTGCTAG", "fitted relative affinity [z-score]": 1.35}
{"Oligonucleotide": "TTAGGACTGGGGTTTAGGTTAGTGCTA", "fitted relative affinity [z-score]": 0.329}
{"Oligonucleotide": "CACTATTTAAGGCCTATGCACGTGCTA", "fitted relative affinity [z-score]": -0.0739}
{"Oligonucleotide": "GACAAACTGGGGTTTCGAGACGTGCTA", "fitted relative affinity [z-score]": 1.98}
{"Oligonucleotide": "CCTCCCTCTCCCGGAGTTCCGTGCTAG", "fitted relative affinity [z-score]": 0.0628}
{"Oligonucleotide": "GCACTTTGGGAGGCCGAGGCGTGCTAG", "fitted relative affinity [z-score]": -0.754}
{"Oligonucleotide": "ATAGATTTCGGGTTTCGATTAGTGCTA", "fitted relative affinity [z-score]": 5.69}
{"Oligonucleotide": "GACGGCCTGGACTTTCGGGACGTGCTA", "fitted relative affinity [z-score]": 0.00243}
{"Oligonucleotide": "GACGGCTTCGGTATCGGGACGTGCTAG", "fitted relative affinity [z-score]": 1.07}
{"note": "Some of these lines once more (sample 1):"}
{"Oligonucleotide": "GGAAAGAAAGUUGAAGACUGUUCUCUGGCUUCUCCUACCUAGGUACAGCAGACUGUAGUACCUCACAGCCCACUUGAGCCCUGGCUUCUCUCAGCAUCACAGAUGAAACU", "RBNS enrichment (R)": 1.15}
{"Oligonucleotide": "CUUUCUAGUUUGGCAGUGCGACUGAGAGAAGAUUCCACACAGGAACAUCUUUCUUCUCCAUCACUCCACGCCUCCAUCCAAGCUCAGUUUCCACUCGCCCACCAGAAGCA", "RBNS enrichment (R)": 1.22}
{"Oligonucleotide": "ACUUGUCCAGUGCUUCACAGUGUUGCUAAUCAGUGGAGAAAUACAUGCUUUCAUUAUCAAGUGUAGUCAGCCGUCUGUUGAGGUCAGGUUUCCUUCCGUUAGCUUUUGGG", "RBNS enrichment (R)": 0.4}
{"Oligonucleotide": "UGCUCGUCCUGUUAAUUUUCCUCAAUUUUUCUUCUUCUUCCUUCUGUCCCUCCUGCCUUCCUUCUCUUCCCAAGCCCUCCAAUCCCCAUCCCAGGCUUGCUGUGUCUCAC", "RBNS enrichment (R)": 1.79}
{"Oligonucleotide": "UAGCCCAGAAAAUCCACACCUUUUGUCCUUUUUAUGUUUUAAUUUGAAUAAUCAUGUGCUUAGUCCCUUGGAUUACUGCCACAUCAGUUUAACACGAUAUCAGCACAUUC", "RBNS enrichment (R)": 0.326}
